Experimental data gathered from unrelated publications.
Each line is one published result; not all experiments were run side by side.
Observed: cell growth or viability

Compound | cell line | assay | setting | viability [%]
Cc1sc2c(=O)n(O)c(=O)[nH]c2c1C | HFF | MTS | 10 µM, 7 days | 115
COc1cc(/C=C/C(=O)C(=Cc2ccc(O)cc2)C(=O)/C=C/c2ccc(O)c(OC)c2)ccc1O | WRL68 | MTT | 6.2 µg/mL, 48 h | 81.9
CC1(F)CN(C(=O)Cn2c(=O)c(C(=O)NCc3ccc(Cl)cc3)cc3nc(N4CCN(CC(=O)O)C4=O)cnc32)C1 | MRC5 | CCK-8 | 40 µM | 99
CNC(=O)c1cc(Oc2ccc(NC(=O)Nc3ccc(Cl)c(C(F)(F)F)c3)cc2)ccn1 | WISH | MTT | 6.25 µM, 24 h | 65.1
COc1cc(/C=C/C(=O)C(=Cc2ccccc2)C(=O)/C=C/c2ccc(O)c(OC)c2)ccc1O | WRL68 | MTT | 0.4 µg/mL, 48 h | 12.1
O=S(=O)(NNc1nnc(Cl)c2ccccc12)c1ccc(F)cc1 | Vero | MTT | 1000 µg/mL | 2.36
O=c1[nH]c2c3c(sc2c(=O)n1O)CCC3 | HFF | MTS | 10 µM, 7 days | 130
Cn1cnc2c1c(=O)n(CC(=O)Nc1c(Cl)cccc1Cl)c(=O)n2C | Vero | MTT | 125 µg/mL | 93.8
O=C1c2ccccc2C(c2ccccc2F)C(=O)N1O (centres unmarked) | HFF | MTS | 10 µM, 7 days | 87
Cc1ccc(C(CS(=O)(=O)c2ccccc2)=NNC2=NC(=O)C(=NNc3ccccc3)S2)cc1 | WM 266-4 | MTT | 1.6 µg, 48 h | 59.1
COc1ccc(NC(=O)Nc2cccc(-c3cn(Cc4ccc(Br)cc4)nn3)c2)cc1 | L02 | CCK-8 | 50 µM, 72 h | 121
COc1cccc2c1C(=O)c1c(O)c3c(c(O)c1C2=O)C[C@@](O)(C(=O)CO)C[C@@H]3O[C@H]1C[C@H](N)[C@H](O)[C@H](C)O1 | SW480 | MTT | 100 µg/mL | 9.97
O=c1[nH]c2ccsc2c(=O)n1O | HFF | MTS | 10 µM, 7 days | 117
COC(=O)COc1c(Cc2cc(C(C)(C)CC(C)(C)C)cc(-n3nc4ccccc4n3)c2OCC(=O)OC)cc(C(C)(C)CC(C)(C)C)cc1-n1nc2ccccc2n1 | HeLa | MTT | 10 µM, 48 h | 23.8
Cc1ccc(S(=O)(=O)NNc2ccc([N+](=O)[O-])cc2[N+](=O)[O-])cc1 | HEK293 | MTT | 7.8125 µg/mL | 90.5
O=c1[nH]c2cc(-c3ccc(Cl)cc3)ccc2c(=O)n1O | HFF | MTS | 10 µM, 7 days | 87

Compound | cell line | assay | setting | viability [%]
Cc1ccc(S(=O)(=O)[N](Nc2ccc([N+](=O)[O-])cc2[N+](=O)[O-])[Sn]([Cl])[Cl])cc1 | HEK293 | MTT | 31.25 µg/mL | 86
CCNc1nc(Nc2ccc(F)c(Cl)c2)c2ccccc2n1 | Vero | MTT | 62.5 µg/mL | 99.8
O=c1[nH]c2sc(-c3ccccc3)cc2c(=O)n1O | HFF | MTS | 10 µM, 7 days | 91
COc1ccc(NC(=O)Nc2cccc(-c3cn(Cc4ccc(C)cc4)nn3)c2)cc1 | L02 | CCK-8 | 50 µM, 72 h | 121
Cc1ccc(CCC(=O)Nc2nnc(S(N)(=O)=O)s2)cc1 | Vero | MTS | 392 µM, 24 h | 95 to 100
CC1(C)CN(C(=O)Cn2c(=O)c(C(=O)NCc3ccc(Cl)cc3)cc3nccnc32)C1 | MRC5 | CCK-8 | 40 µM | 95
COc1cccc(NC(=O)Nc2ccc(Oc3nc4ccccc4n4cnnc34)cc2)c1 | WISH | MTT | 100 µM, 24 h | 47.3
Cc1sc2[nH]c(=O)n(O)c(=O)c2c1C | HFF | MTS | 10 µM, 7 days | 77
CC(C)n1ncc2c(C(=O)NCC3(C)CNC3)cc(C3CC3)nc21 | HeLa | neutral red | 27.8 µM | 98.9
O=c1[nH]cc(F)c(=O)[nH]1 | L02 | CCK-8 | 50 µM | 103
O=c1[nH]c2scc(-c3ccc(Cl)cc3)c2c(=O)n1O | HFF | MTS | 10 µM, 7 days | 90
Nc1ccn([C@@H]2O[C@H](CO)[C@@H](O)C2(F)F)c(=O)n1 | MDA-MB-231 | MTT | 0.625 µg/mL, 24 h | 88.6
COc1ccc(NC(=O)Nc2ccc(-c3cn(Cc4ccc(C)cc4)nn3)cc2)cc1 | L02 | CCK-8 | 50 µM, 72 h | 112
COc1cnc2c(cc(C(=O)NCc3ccc(Cl)cc3)c(=O)n2CC(=O)N2CC(C)(F)C2)n1 | MRC5 | CCK-8 | 40 µM | 76
Cc1c(C)c2c(c(C)c1O)CCC(C)(COc1ccc(CC3SC(=O)NC3=O)cc1)O2 (centres unmarked) | THLE-2 | MTT | 100 µM, 96 h | 5.9
COc1cc(/C=C/C(=O)/C=C/c2ccc(O)c(OC)c2)ccc1O | WRL68 | MTT | 0.8 µg/mL, 48 h | 84

Excerpt of the above:
Compound | cell line | assay | setting | viability [%]
Cc1ccc(C(CS(=O)(=O)c2ccccc2)=NNC2=NC(=O)C(=NNc3ccccc3)S2)cc1 | WM 266-4 | MTT | 1.6 µg, 48 h | 59.1
Cc1sc2[nH]c(=O)n(O)c(=O)c2c1C | HFF | MTS | 10 µM, 7 days | 77
